Measurements gathered from unrelated publications.
Each numbered part is a random draw from the data of one study; scales do not carry over between parts. Substitutions count along the parent as printed.

Sample 1
Target: inorganic phosphate, free oxyanion
Technique: microfluidic competitive inhibition
Matrix: in vitro, cell-free expressed
Tested at: not given
Notes: derived from inhibition constants, unchanged parent 615000 nM
Direction: lower = stronger binding
Starting sequence: PafA, mature enzyme, eGFP fusion (Elizabethkingia meningoseptica, UniProt Q9KJX5); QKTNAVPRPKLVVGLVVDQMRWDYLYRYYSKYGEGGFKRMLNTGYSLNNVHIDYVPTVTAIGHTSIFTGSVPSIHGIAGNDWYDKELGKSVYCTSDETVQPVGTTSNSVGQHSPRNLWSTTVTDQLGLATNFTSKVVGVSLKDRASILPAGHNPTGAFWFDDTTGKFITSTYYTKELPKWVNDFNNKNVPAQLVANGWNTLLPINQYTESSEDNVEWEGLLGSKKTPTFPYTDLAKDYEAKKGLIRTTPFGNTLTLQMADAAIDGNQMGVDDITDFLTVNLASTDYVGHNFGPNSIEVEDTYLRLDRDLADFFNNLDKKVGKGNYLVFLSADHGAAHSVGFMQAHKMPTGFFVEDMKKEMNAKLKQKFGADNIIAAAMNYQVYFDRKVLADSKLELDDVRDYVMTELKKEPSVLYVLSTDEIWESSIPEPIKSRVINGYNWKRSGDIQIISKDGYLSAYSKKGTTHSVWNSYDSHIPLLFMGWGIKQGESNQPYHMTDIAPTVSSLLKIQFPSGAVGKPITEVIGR
`K508V` — result for “phosphate dissociation constant”: 421 µM.
`S451V`: “phosphate dissociation constant” 606 µM.
For `A375V`, “phosphate dissociation constant” read 697 µM.
For `D271V`, “phosphate dissociation constant” read 578 µM.
For `Q492V`, “phosphate dissociation constant” read 625 µM.
For `P190G`, “phosphate dissociation constant” read 561 µM.

Sample 2
Target: CCNB3, cyclin fold, Cln2 fusion (human)
Technique: yeast growth competition, sequencing
Matrix: yeast
Notes: strong parent motif
Reference: not given
Direction: higher = stronger binding
Starting sequence: viral docking peptide; TSVRRALFTGGSD; partner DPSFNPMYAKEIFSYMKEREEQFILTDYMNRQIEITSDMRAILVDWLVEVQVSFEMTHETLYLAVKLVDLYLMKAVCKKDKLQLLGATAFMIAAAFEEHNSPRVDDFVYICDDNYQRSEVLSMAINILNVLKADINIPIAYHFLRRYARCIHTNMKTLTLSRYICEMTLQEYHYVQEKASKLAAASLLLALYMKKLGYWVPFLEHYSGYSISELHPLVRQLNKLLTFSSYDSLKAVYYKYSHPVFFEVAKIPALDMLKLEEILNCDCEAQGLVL
Under “normalised enrichment score”, `A6F` is recorded as 0.382.
`G10Q`: “normalised enrichment score” 1.91.
`R5K F8L`: “normalised enrichment score” 0.281.
For `G10F`, “normalised enrichment score” read 1.61.
`S2P` — result for “normalised enrichment score”: 1.5.
`R5Q`: “normalised enrichment score” 0.162.
Under “normalised enrichment score”, `R5E` is recorded as 0.0694.
Under “normalised enrichment score”, `L7G` is recorded as 0.0662.

Sample 3
Target: UDP-N-acetylglucosamine--peptide N-acetylglucosaminyltransferase 110 kDa subunit (OGT, Homo sapiens, UniProt O15294)
Chain of UniProt O15294 (whole entry, looked up): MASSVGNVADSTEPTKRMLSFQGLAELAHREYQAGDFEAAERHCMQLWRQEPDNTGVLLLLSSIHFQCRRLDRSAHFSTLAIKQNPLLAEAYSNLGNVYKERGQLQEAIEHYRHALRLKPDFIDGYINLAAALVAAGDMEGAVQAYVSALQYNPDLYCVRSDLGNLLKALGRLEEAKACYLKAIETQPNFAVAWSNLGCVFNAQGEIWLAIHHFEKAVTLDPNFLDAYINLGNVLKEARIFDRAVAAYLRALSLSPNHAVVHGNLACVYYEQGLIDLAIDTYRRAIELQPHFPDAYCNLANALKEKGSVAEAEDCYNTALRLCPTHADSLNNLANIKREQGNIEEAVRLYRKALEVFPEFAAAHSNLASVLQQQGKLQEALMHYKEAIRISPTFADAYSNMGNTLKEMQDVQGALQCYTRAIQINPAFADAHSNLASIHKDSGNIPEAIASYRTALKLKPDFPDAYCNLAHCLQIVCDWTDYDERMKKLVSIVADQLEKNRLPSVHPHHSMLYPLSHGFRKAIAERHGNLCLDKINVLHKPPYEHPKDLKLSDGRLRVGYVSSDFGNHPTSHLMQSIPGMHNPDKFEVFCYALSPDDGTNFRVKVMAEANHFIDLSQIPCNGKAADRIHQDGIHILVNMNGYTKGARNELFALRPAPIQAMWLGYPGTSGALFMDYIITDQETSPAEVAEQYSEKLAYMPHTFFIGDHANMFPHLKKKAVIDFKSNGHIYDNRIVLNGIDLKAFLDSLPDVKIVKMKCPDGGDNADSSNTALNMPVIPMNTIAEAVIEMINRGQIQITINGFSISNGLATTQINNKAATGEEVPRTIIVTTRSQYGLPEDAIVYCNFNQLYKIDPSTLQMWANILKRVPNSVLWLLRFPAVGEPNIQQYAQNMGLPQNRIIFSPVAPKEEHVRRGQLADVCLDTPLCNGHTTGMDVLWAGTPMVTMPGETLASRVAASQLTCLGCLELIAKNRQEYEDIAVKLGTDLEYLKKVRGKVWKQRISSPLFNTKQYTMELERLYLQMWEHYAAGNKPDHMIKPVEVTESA
Effect on: binding
Technique: phage display NGS
Molecule type: peptide
Tested at: concentration not given
Reference: input library
For `HVYHKNHADTHAVAH`, “enrichment fold change” read 8.65.
`HDVAMAKLHHQQFDY` — result for “enrichment fold change”: 2.38.
Under “enrichment fold change”, `HINHHHQSITIPWWN` is recorded as 58.6.
Under “enrichment fold change”, `SQYVSLLPQYQITLE` is recorded as 2.49.
`YPWHRPHQHTYERDE`: “enrichment fold change” 5.34.
For `HRDLHFHTSWNYHRI`, “enrichment fold change” read 3.63.
`HVNSRFWFHTQDHHP` — result for “enrichment fold change”: 4.17.
`QPHHQHYFGVNHTQR`: “enrichment fold change” 9.15.

Other studies, line by line
With `O=C1CCC(N2Cc3c(ccc4c3OCC43CCN(Cc4ccccc4)CC3)C2=O)C(=O)N1` (centres unmarked) the plasma concentration was 31.4 ng/mL (male Sprague Dawley rats, plasma; oral, 3 mg/kg, 8 h).

Repeated from above (sample 1):
`K508V` — result for “phosphate dissociation constant”: 421 µM.
`S451V`: “phosphate dissociation constant” 606 µM.
For `A375V`, “phosphate dissociation constant” read 697 µM.
